{"data": "Measured values of several laboratories", "note": "Parts stem from different laboratories: compare values within a part only.", "sequence of UniProt O15294 (whole entry, looked up)": "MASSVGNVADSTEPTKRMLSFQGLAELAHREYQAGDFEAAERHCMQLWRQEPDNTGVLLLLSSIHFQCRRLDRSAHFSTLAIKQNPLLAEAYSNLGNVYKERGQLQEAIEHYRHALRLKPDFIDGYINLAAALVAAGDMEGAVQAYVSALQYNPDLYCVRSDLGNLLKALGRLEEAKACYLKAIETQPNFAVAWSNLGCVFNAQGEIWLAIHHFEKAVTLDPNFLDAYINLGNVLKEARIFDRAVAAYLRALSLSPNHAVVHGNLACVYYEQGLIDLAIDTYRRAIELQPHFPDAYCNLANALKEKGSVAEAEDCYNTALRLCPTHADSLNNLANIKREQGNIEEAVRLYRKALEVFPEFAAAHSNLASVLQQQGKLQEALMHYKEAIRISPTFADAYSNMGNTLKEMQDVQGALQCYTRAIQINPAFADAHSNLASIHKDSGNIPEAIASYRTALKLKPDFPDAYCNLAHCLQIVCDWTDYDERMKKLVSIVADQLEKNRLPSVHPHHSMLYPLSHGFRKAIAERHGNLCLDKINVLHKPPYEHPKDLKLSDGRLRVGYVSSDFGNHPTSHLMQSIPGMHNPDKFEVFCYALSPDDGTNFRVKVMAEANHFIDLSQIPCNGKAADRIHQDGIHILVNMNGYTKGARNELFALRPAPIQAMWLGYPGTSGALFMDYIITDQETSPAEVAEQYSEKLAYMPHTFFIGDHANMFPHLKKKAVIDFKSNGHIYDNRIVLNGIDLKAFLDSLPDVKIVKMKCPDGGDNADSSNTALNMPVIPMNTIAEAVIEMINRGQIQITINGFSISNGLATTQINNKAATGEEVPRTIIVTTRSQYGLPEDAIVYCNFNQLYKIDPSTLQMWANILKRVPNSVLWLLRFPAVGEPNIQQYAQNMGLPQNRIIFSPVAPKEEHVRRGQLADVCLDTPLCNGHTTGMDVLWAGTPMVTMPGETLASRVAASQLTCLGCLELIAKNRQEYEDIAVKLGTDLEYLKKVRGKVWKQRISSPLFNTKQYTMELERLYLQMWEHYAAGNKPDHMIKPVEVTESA"}
{"data": "Set 1", "target": "Protein C-ets-1 (ETS1, Homo sapiens, UniProt P14921, residues 1-441, K379A, full length assumed)", "technique": "protein-binding microarray", "molecule type": "double-stranded DNA, one strand shown", "medium": "in vitro", "concentration": "not given", "notes": "k-mer, scored over probes, only values ≥0.25", "direction": "higher = stronger binding", "Target sequence (chain)": "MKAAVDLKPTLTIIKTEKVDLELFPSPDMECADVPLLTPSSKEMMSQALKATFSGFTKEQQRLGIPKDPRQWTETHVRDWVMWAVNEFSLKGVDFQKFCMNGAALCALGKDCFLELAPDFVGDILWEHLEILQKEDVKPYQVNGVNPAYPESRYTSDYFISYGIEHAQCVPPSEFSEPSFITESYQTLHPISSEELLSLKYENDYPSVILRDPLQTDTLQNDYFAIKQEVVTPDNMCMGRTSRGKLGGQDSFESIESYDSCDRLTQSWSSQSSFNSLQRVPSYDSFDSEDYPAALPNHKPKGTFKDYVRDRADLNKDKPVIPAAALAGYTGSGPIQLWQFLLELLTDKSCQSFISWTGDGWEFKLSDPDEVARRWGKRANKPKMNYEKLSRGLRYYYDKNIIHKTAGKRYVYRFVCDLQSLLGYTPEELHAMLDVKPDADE"}
{"Oligonucleotide": "CGTTATTA", "E-score": 0.307}
{"Oligonucleotide": "AATCCGGT", "E-score": 0.378}
{"Oligonucleotide": "CGACCGGA", "E-score": 0.407}
{"Oligonucleotide": "ACCCGGTG", "E-score": 0.293}
{"Oligonucleotide": "ACCGGTAG", "E-score": 0.421}
{"Oligonucleotide": "CCCCGGCC", "E-score": 0.391}
{"Oligonucleotide": "ATCTTGTA", "E-score": 0.252}
{"Oligonucleotide": "TGAATTCA", "E-score": 0.312}
{"data": "Set 2", "target": "Prothrombin, mature alpha-thrombin (F2, Homo sapiens, UniProt P00734)", "technique": "aptamer microarray, sandwich", "molecule type": "DNA with 2'F-ANA", "medium": "in vitro", "concentration": "200 nM", "notes": "whole 15-mer aptamer, many near background", "together with": "Cy3 exosite-II aptamer, 400 nM", "direction": "higher = stronger binding", "oligonucleotide": "GGTTGGTGTGGTTGG"}
{"Modification": "2'F-ANA at 1 3 4 8 9 11", "mean fluorescence intensity [a.u.]": 198}
{"Modification": "2'F-ANA at 4 5 6 8 9 11 12", "mean fluorescence intensity [a.u.]": 102}
{"Modification": "2'F-ANA at 3 4 7 8 10 11 12 13", "mean fluorescence intensity [a.u.]": 311}
{"Modification": "2'F-ANA at 1 3 6 8 9 10 11 14 15", "mean fluorescence intensity [a.u.]": 61.2}
{"Modification": "2'F-ANA at 1 5 9 11 12 13 14 15", "mean fluorescence intensity [a.u.]": 48.8}
{"Modification": "2'F-ANA at 2 3 4 5 8 10 11 12 13", "mean fluorescence intensity [a.u.]": 52.1}
{"Modification": "2'F-ANA at 1 2 3 6 9 10", "mean fluorescence intensity [a.u.]": 64.5}
{"Modification": "2'F-ANA at 2 5 11 12 13", "mean fluorescence intensity [a.u.]": 101}
{"data": "Further values, each from its own experiment"}
{"Substance": "GPRC5C (Homo sapiens, UniProt Q9NQ84)", "target or system": "UBA2 (Homo sapiens, UniProt Q9UBT2)", "assay": "cross-linking MS", "test system": "cell fractions", "setting": "together with: DSSO", "measurement": "cross-linked residues", "result": "K329 to K236"}
{"Substance": "PhoQ, residues 284 288 289 292 302 303 SSLVEF", "target or system": "PhoP, residues 12 14 15 18 19 GQAIL (Escherichia coli, UniProt P23836)", "assay": "Sort-seq, refers to: YFP reporter", "test system": "E. coli", "setting": "PhoQ-PhoP variant library, together with: 10 µM Mg2+", "scale": "baseline: high Mg2+ state, higher = stronger signaling", "measurement": "fold induction", "result": 11.5}
{"Substance": "PSMD9 (Homo sapiens, UniProt O00233)", "target or system": "PSMC3 (Homo sapiens, UniProt P17980)", "assay": "cross-linking MS", "setting": "hits only", "measurement": "interaction screen", "result": "cross-linked"}
{"Substance": "TYLHHGDVVDMTSHV", "target or system": "OGT (Homo sapiens, UniProt O15294)", "assay": "binding, phage display NGS", "test system": "peptide", "setting": "concentration not given, normalized abundance", "scale": "baseline: input library", "measurement": "enrichment fold change", "result": 8.67}
{"Substance": "PNN (Homo sapiens, UniProt Q9H307)", "target or system": "ACIN1 (Homo sapiens, UniProt Q9UKV3)", "assay": "cross-linking MS", "test system": "cell fractions", "setting": "together with: DSSO", "measurement": "cross-linked residues", "result": "K157 to K1073"}
{"Substance": "H1-4 (Homo sapiens, UniProt P10412)", "target or system": "H2AC14 (Homo sapiens, UniProt Q99878)", "assay": "cross-linking MS", "setting": "hits only", "measurement": "interaction screen", "result": "cross-linked"}
{"note": "Repeated from above (set 2):"}
{"Modification": "2'F-ANA at 1 2 3 6 9 10", "mean fluorescence intensity [a.u.]": 64.5}
{"Modification": "2'F-ANA at 2 5 11 12 13", "mean fluorescence intensity [a.u.]": 101}
